Measured values collected from several papers.
“And” joins repeats or separate records; there may be more than shown. ± marks the error that the study gave.

`C[C@]1(CO)Cc2ncn(-c3ccc(C#N)c(Cl)c3)c2C(=O)O1` — result for “serum potassium elevation incidence”: 28.9% (measured: potassium, serum, ≥5.0 mmol/L; human; European multiple ascending dose).
The urine leukocyte-positive of `C[C@@H](NC(=O)N1C(=O)[C@H](Cc2ccnc(N)c2)[C@H]1C(=O)O)C1CCCCC1` is reported as 0% (healthy Chinese adults; continuous intravenous infusion, 0.3 mg/kg/h, 5.0 days).
`O=C(c1ccc(F)c(F)c1Nc1ccc(I)cc1F)N1CC(O)([C@@H]2CCCCN2)C1` — result for “patients with AE leading to withdrawal”: 8% (human patients; oral, 1 mg/kg, dose expansion cohort).
`CC(C)(C)c1cc(-n2nc3ccccc3n2)c(O)c(C(C)(C)C)c1`: “daily dermal exposure dose” 4.35 ng/kg/day (human aged 16-21 years; concentration not given, sunscreen, 95th percentile).
Under “grade 3 Headache”, `COc1cc2c(Oc3ccc4[nH]c(C)cc4c3F)ccnc2cc1OCC1(N)CC1` is recorded as 0% (paediatric recurrent refractory sarcoma; 8 mg/kg).
`CO[C@H]1C[C@@H]2CC[C@@H](C)[C@@](O)(O2)C(=O)C(=O)N2CCCC[C@H]2C(=O)O[C@H]([C@H](C)C[C@@H]2CC[C@@H](OC(=O)NCCOCCOCCOCCOCCOCCOCCOCCOCCC(=O)N3CCc4cc(Cn5nc(-c6ccc7oc(N)nc7c6)c6c(N)ncnc65)ccc4C3)[C@H](OC)C2)C[C@@H](O)[C@H](C)/C=C(\C)[C@@H](O)[C@@H](OC)C(=O)[C@H](C)C[C@H](C)/C=C/C=C/C=C/1C` — result for “decreased appetite TEAE incidence”: 35% (dose-escalation trial; patients with advanced solid tumours; intravenous, all doses weekly, any grade).
`O.O.O.O.O.O.[Cl-].[Cl-].[Co+2]` — result for “urinary cobalt creatinine-corrected”: 0.097 µg/µmol creatinine (rat male, urine; oral, 10 mg/kg single, day 2).
Under “focal thrombosis score”, `CC[C@H](C)[C@@H]1NC(=O)[C@@H]2CSSC[C@H](NC(=O)[C@H](CCCNC(=N)N)NC(=O)[C@@H]3CSSC[C@H](NC1=O)C(=O)N[C@@H]([C@@H](C)O)C(=O)N[C@@H](CCCNC(=N)N)C(=O)NCC(=O)N[C@@H](Cc1ccccc1)C(=O)N3)C(=O)N[C@@H](CC(C)C)C(=O)N[C@H]1CSSC[C@H](NC(=O)[C@H](C(C)C)NC(=O)CNC(=O)[C@H](CCCNC(=N)N)NC(=O)[C@H](CCCNC(=N)N)NC1=O)C(=O)N[C@@H](CCCNC(=N)N)C(=O)N2` is recorded as 1 to 2 (Sprague-Dawley rats, female, lung; 5 mg/kg; direction not given).
`O=C1Nc2cc3[nH]nc(-c4ccncc4)c3cc2CN1Cc1ccccc1`: “patients with constipation” 11% (CTCAE v4.03; advanced solid tumour patients; intravenous, 9.6 mg/kg, schedules 1/2).
`N#C[C@@H]1CC(F)(F)CN1C(=O)CNC(=O)c1ccnc2ccc(OCCCN3CCN(C(=O)CN4CCN(CC(=O)[O-])CCN(CC(=O)[O-])CC4)CC3)cc12.[18F-].[Al+3]` has a tissue uptake of 0.75 ± 0.25 %ID/g (healthy rat, bladder; iv, 2 h).
`O=C(Nc1ccccc1)C1CCN(C(=O)Oc2cccnc2)CC1`: “change in Alert-Drowsy score” -2.2 (Bond-Lader VAS; healthy women; 20 mg; reference: pre-dose baseline, direction not given).
Under “treatment-related adverse event incidence”, `COc1ccc(-c2c(-c3ccc(C#N)c(F)c3)nc(N3CCC(N)CC3)n(C)c2=O)cc1F` is recorded as 0% (measured: Leukopenia; relapsed/refractory marginal zone lymphoma patients; oral, 60 mg, any grade, dose expansion).
The potassium of `CCc1ccc(CC/C=C/c2ccc3c(c2)C(=O)CC3)cc1` is reported as 4.34 mM (Sprague-Dawley rat, female, serum; oral, 450 mg/kg/day, 14 days).
`CC[C@H](C)[C@H](NC(=O)[C@H](CCCCN)NC(=O)[C@H](CCC(=O)O)NC(=O)[C@H](CCCCN)NC(=O)[C@H](CO)NC(=O)[C@H](CCCCN)NC(=O)[C@H](CCCNC(=N)N)NC(=O)[C@H](Cc1ccccc1)NC(=O)[C@H](Cc1ccccc1)NC(=O)[C@H](CC(=O)O)NC(=O)CNC(=O)[C@H](CC(C)C)NC(=O)[C@@H](N)CC(C)C)C(=O)NCC(=O)N[C@@H](CCCCN)C(=O)N[C@@H](CCC(=O)O)C(=O)N[C@@H](Cc1ccccc1)C(=O)N[C@@H](CCCCN)C(=O)N[C@@H](CCCNC(=N)N)C(=O)N[C@H](C(=O)N[C@H](C(=O)N[C@@H](CCC(N)=O)C(=O)N[C@@H](CCCNC(=N)N)C(=O)N[C@H](C(=O)N[C@@H](CCCCN)C(=O)N[C@@H](CC(=O)O)C(=O)N[C@@H](Cc1ccccc1)C(=O)N[C@@H](CC(C)C)C(=O)N[C@@H](CCCNC(=N)N)C(=O)N[C@@H](CC(N)=O)C(=O)N[C@@H](CC(C)C)C(=O)N[C@H](C(=O)N1CCC[C@H]1C(=O)N[C@@H](CCCNC(=N)N)C(=O)N[C@H](C(=O)N[C@@H](CCC(=O)O)C(=O)N[C@@H](CO)C(=O)O)[C@@H](C)O)C(C)C)[C@@H](C)CC)C(C)C)[C@@H](C)CC` — result for “remaining intact peptide”: 2.49% and 2.06% (LC-MS; 50% pooled human serum; 40 µM, 120 min, pH 7.5, 37 °C; reference: 0 h).

For quick reference, copied from above:
`CO[C@H]1C[C@@H]2CC[C@@H](C)[C@@](O)(O2)C(=O)C(=O)N2CCCC[C@H]2C(=O)O[C@H]([C@H](C)C[C@@H]2CC[C@@H](OC(=O)NCCOCCOCCOCCOCCOCCOCCOCCOCCC(=O)N3CCc4cc(Cn5nc(-c6ccc7oc(N)nc7c6)c6c(N)ncnc65)ccc4C3)[C@H](OC)C2)C[C@@H](O)[C@H](C)/C=C(\C)[C@@H](O)[C@@H](OC)C(=O)[C@H](C)C[C@H](C)/C=C/C=C/C=C/1C` — result for “decreased appetite TEAE incidence”: 35% (dose-escalation trial; patients with advanced solid tumours; intravenous, all doses weekly, any grade).
`O.O.O.O.O.O.[Cl-].[Cl-].[Co+2]` — result for “urinary cobalt creatinine-corrected”: 0.097 µg/µmol creatinine (rat male, urine; oral, 10 mg/kg single, day 2).
